# Assay results gathered from unrelated publications.
# Each line is one published result; not all experiments were run side by side. Numbers after ± are the reported error.
SMILES,tested on,test,test system,setting,scale,measurement,value
Cc1ccc(NC(=O)Nc2ccnc(-c3cccnc3)n2)cc1,Leishmania major,parasite growth,,promastigote,,EC50,> 50000 nM
Cc1ccc(Oc2ccc(-c3ccn4c(CC5CC5)nnc4c3C(F)(F)F)cc2F)c(C)n1,,,"rat Sprague Dawley male, plasma","subcutaneous, 10 mg/kg, 2 h",,plasma concentration,442 ng/mL
O=C(N[C@@H](CC1CCCCC1)C(=O)N[C@@H](C[C@@H]1CCNC1=O)C(O)S(=O)(=O)O)OCc1ccccc1 (some centres unmarked),feline coronavirus,viral replication,"CRFK, FIPV-1146",36 h,,EC50,20 ± 60 nM
Cc1cccc(-c2ccc3nc(NC(=O)C4CCCCC4)nn3c2)c1,Leishmania major,parasite growth,,promastigote,,IC50,2000 to 10000 nM
O=C(N[C@@H](CC1CCCCC1)C(=O)N[C@@H](C[C@@H]1CCNC1=O)C(=O)C(=O)NC1CC1)OCc1cccc(Cl)c1,feline coronavirus,viral replication,"CRFK, FIPV-1146",36 h,,EC50,550 ± 230 nM
NCCCN1CC(=O)N(Cc2ccccc2)CC(=O)N(CCCN)CC(=O)N(Cc2ccccc2)CC(=O)N(CCCN)CC(=O)N(Cc2ccccc2)CC1=O,Staphylococcus aureus,,"USA300, MRSA",concentration not given,,antibacterial activity,inactive
CC(C)C[C@H](NC(=O)OCc1ccccc1)C(=O)N[C@@H](C[C@@H]1CCNC1=O)C(=O)C(=O)NC1CCCCC1,feline coronavirus,viral replication,"CRFK, FIPV-1146",36 h,,EC50,70 ± 20 nM
C(=N\Nc1nnc(N/N=C/c2ccco2)c2ccccc12)/c1ccco1,Plasmodium berghei,four-day suppressive test,"ANKA, infected mice","oral, 20 mg/kg daily, day 4 post-infection",,parasitaemia reduction,~99.7%
O=C[C@H](C[C@@H]1CCNC1=O)NC(=O)[C@H](CC1CCCCC1)NC(=O)OCc1cccc(Cl)c1,feline coronavirus,viral replication,"CRFK, FIPV-1146",36 h,,EC50,90 ± 10 nM
CC(C)C[C@H](NC(=O)[C@@H](NC(=O)[C@H](CCONC(=N)N)NC(=O)OCc1ccccc1)C1CCCCC1)[C@@H](O)CC(=O)NCCc1ccccc1,Plasmodium falciparum,parasite growth,3D7,,,EC50,700 nM
CC(C)C[C@@H]1NC(=O)[C@H](CCCN)NC(=O)[C@H](C(C)C)NC(=O)[C@@H]2CCCN2C(=O)[C@@H](Cc2ccccc2)NC(=O)[C@H](CC(C)C)NC(=O)[C@H](CCCN)NC(=O)[C@H](C(C)C)NC(=O)[C@@H]2CCCN2C(=O)[C@@H](Cc2ccccc2)NC1=O,Staphylococcus aureus,broth dilution,"USA300 LAC, MRSA","18 to 24 h, 37 °C",,MIC,15.6 µg/mL
CCC[C@H](NC(=O)[C@H](CCCNC(=N)N)NC(=O)OCc1ccccc1)C(=O)N[C@@H](CC(C)C)[C@@H](O)CC(=O)NCCc1ccccc1,Plasmodium falciparum,parasite growth,3D7,"72 h, blood stage",,EC50,3040 nM
O=C(O)COc1ccc(Br)cc1C=NNC(=O)Cc1ccccc1 (mixture of isomers),,item: latency to stage 3,"male mice, pilocarpine-induced seizures","oral, 20 mg/kg, dosed 30 min before pilocarpine, together with: pilocarpine 300 mg/kg i.p.",relative to: pilocarpine vehicle group,seizure latency increase,189%
CC(C)C[C@H](NC(=O)[C@@H](NC(=O)[C@H](CCONC(=N)N)NC(=O)OCc1ccccc1)C(C)C)[C@@H](O)CC(=O)NCCc1ccccc1,Plasmodium falciparum,parasite growth,3D7,,,EC50,1070 nM
O=[N+]([O-])c1cccc(/C=N/Nc2nnc(N/N=C/c3cccc([N+](=O)[O-])c3)c3ccccc23)c1,Plasmodium berghei,four-day suppressive test,"ANKA, infected mice","oral, 20 mg/kg daily, day 4 post-infection",,parasitaemia reduction,~99.8%
CC[C@H](C)[C@H](NC(=O)[C@H](CCONC(=N)N)NC(=O)OCc1ccccc1)C(=O)N[C@@H](CC(C)C)[C@@H](O)CC(=O)NCCc1ccccc1,Plasmodium falciparum,parasite growth,3D7,"72 h, blood stage",,EC50,420 nM
O=C(O)COc1ccccc1/C=N/NC(=O)CNc1ccc(Cl)cc1,,Racine scale 0-5,"male mice, pilocarpine-induced seizures","oral, 20 mg/kg, 1.5 h after pilocarpine, unit not given, together with: pilocarpine 300 mg/kg i.p.",higher = more severe,seizure severity,2.6 ± 0.52

# Excerpt of the above:
SMILES,tested on,test,test system,setting,scale,measurement,value
CC(C)C[C@H](NC(=O)[C@@H](NC(=O)[C@H](CCONC(=N)N)NC(=O)OCc1ccccc1)C(C)C)[C@@H](O)CC(=O)NCCc1ccccc1,Plasmodium falciparum,parasite growth,3D7,,,EC50,1070 nM
C(=N\Nc1nnc(N/N=C/c2ccco2)c2ccccc12)/c1ccco1,Plasmodium berghei,four-day suppressive test,"ANKA, infected mice","oral, 20 mg/kg daily, day 4 post-infection",,parasitaemia reduction,~99.7%
NCCCN1CC(=O)N(Cc2ccccc2)CC(=O)N(CCCN)CC(=O)N(Cc2ccccc2)CC(=O)N(CCCN)CC(=O)N(Cc2ccccc2)CC1=O,Staphylococcus aureus,,"USA300, MRSA",concentration not given,,antibacterial activity,inactive
